{"data": "Values quoted from earlier work that unrelated publications cite", "note": "Each numbered part shows a few of the values that one paper quotes."}
{"data": "Set 1", "target": "dopamine transporter"}
{"Compound": "CCCC(=O)Nc1ccc(OCC(O)CNC(C)C)c(C(C)=O)c1 (centres unmarked)", "IC50 [µM]": "> 10"}
{"Compound": "CC(C)(C)NC(=O)[C@H]1CC[C@H]2[C@@H]3CC[C@H]4NC(=O)C=C[C@]4(C)[C@H]3CC[C@]12C", "IC50 [µM]": "> 10"}
{"Compound": "CC(C)(C(=O)O)c1ccc(C(O)CCCN2CCC(C(O)(c3ccccc3)c3ccccc3)CC2)cc1 (centres unmarked)", "IC50 [µM]": "> 10"}
{"data": "Set 2", "organism": "Cryptosporidium parvum", "method": "high-throughput screen", "tested at": "concentration not given"}
{"SMILES": "CC1CNc2c(cccc2S(=O)(=O)N[C@@H](CCCNC(=N)N)C(=O)N2CC[C@@H](C)C[C@@H]2C(=O)O)C1 (some centres unmarked)", "activity": "inactive"}
{"SMILES": "O=c1[nH]cnc2c1ncn2[C@H]1CC[C@@H](CO)O1", "activity": "inactive"}
{"SMILES": "CC(C(=O)O)c1ccc(CC2CCCC2=O)cc1 (centres unmarked)", "activity": "inactive"}
{"SMILES": "CC(C)(O)c1ccccc1CC[C@@H](SCC1(CC(=O)O)CC1)c1cccc(/C=C/c2ccc3ccc(Cl)cc3n2)c1", "activity": "inactive"}
{"SMILES": "CCc1cccc2c3c([nH]c12)C(CC)(CC(=O)O)OCC3 (centres unmarked)", "activity": "inactive"}
{"SMILES": "CC(C)OC(=O)CCC/C=C\\C[C@@H]1[C@@H](CC[C@@H](O)CCc2ccccc2)[C@H](O)C[C@@H]1O", "activity": "inactive"}
{"SMILES": "CN(C)CC/C=C1/c2ccccc2COc2ccc(CC(=O)O)cc21", "activity": "inactive"}
{"SMILES": "O=C(CCNNC(=O)c1ccncc1)NCc1ccccc1", "activity": "inactive"}
{"SMILES": "Br.O=C1CC2(CCCC2)CC(=O)N1CCNCC1COc2ccccc2O1 (centres unmarked)", "activity": "inactive"}
{"SMILES": "CCC(=O)NS(=O)(=O)c1ccc(-c2c(-c3ccccc3)noc2C)cc1", "activity": "inactive"}
{"SMILES": "N[C@@H]1CON=C1O", "activity": "inactive"}
{"SMILES": "CC1COc2c(N3CCN(C)CC3)c(F)cc3c(=O)c(C(=O)O)cn1c23 (centres unmarked)", "activity": "inactive"}
{"SMILES": "CC(C)n1c(/C=C/C(O)CC(O)CC(=O)O)c(-c2ccc(F)cc2)c2ccccc21 (centres unmarked)", "activity": "inactive"}
{"SMILES": "Cc1c(OCC(F)(F)F)ccnc1C[S+]([O-])c1nc2ccccc2[nH]1 (centres unmarked)", "activity": "inactive"}
{"SMILES": "O=C1c2c(O)cc(O)cc2OC(c2ccc(O)c(O)c2)C1O (centres unmarked)", "activity": "inactive"}
{"SMILES": "CC(=O)O.CNC(=N)NCCC[C@H](N)C(=O)O", "activity": "inactive"}
{"SMILES": "CC(COc1ccccc1)NC(C)C(O)c1ccc(O)cc1 (centres unmarked)", "activity": "inactive"}
{"SMILES": "COc1ccc(C2CNC(=O)C2)cc1OC1CCCC1 (centres unmarked)", "activity": "inactive"}
{"SMILES": "CSc1nc2cc(Cl)c(Oc3cccc(Cl)c3Cl)cc2[nH]1", "activity": "inactive"}
{"SMILES": "CN(C)[C@@H]1C(O)=C(C(=O)NCN2CCCC2)C(=O)[C@@]2(O)C(O)=C3C(=O)c4c(O)cccc4[C@@](C)(O)[C@H]3C[C@@H]12", "activity": "inactive"}
{"SMILES": "COc1cc(C(=O)NS(=O)(=O)c2ccccc2C)ccc1Cc1cn(C)c2ccc(NC(=O)OC3CCCC3)cc12", "activity": "inactive"}
{"SMILES": "COc1cccc2c1C(=O)c1c(O)c3c(c(O)c1C2=O)C[C@@](O)(C(=O)CO)C[C@@H]3O[C@H]1C[C@H](N)[C@H](O)[C@H](C)O1", "activity": "inactive"}
{"SMILES": "Cc1occc(=O)c1O", "activity": "inactive"}
{"SMILES": "CC(C)C(=O)Nc1ccc([N+](=O)[O-])c(C(F)(F)F)c1", "activity": "inactive"}
{"SMILES": "CN(C)CCOC(c1ccccc1)c1ccccc1", "activity": "inactive"}
{"data": "Single results of other studies"}
{"SMILES": "CC[C@@H](CC[C@@H](C)[C@H]1CC[C@H]2[C@@H]3CC=C4C[C@@H](O)CC[C@]4(C)[C@H]3CC[C@]12C)C(C)C", "tested on": "HeLa", "assay": "cell growth", "quantity": "IC50", "value": "15.9 µg/mL"}
{"SMILES": "O=C(Nc1ccc(-c2nc(-c3ccc(Cl)cc3)no2)cc1)C1CC(=O)N(Cc2ccco2)C1 (centres unmarked)", "assay": "metabolic stability", "system": "rat liver microsomes", "quantity": "half-life", "value": "11 min"}
{"SMILES": "c1ccc2c(c1)Cc1ccccc1-2", "tested on": "amyloid beta oligomers", "assay": "binding", "quantity": "Kd", "value": "~15 µM"}
{"SMILES": "N#CN1CC[C@H](C(=O)Nc2nc3c(s2)CN(C(=O)CN=[N+]=[N-])CC3)C1", "tested on": "UCHL3", "assay": "enzyme activity", "quantity": "IC50", "value": "216 µM"}
{"SMILES": "CC(C)Cc1ccc(C(C)C(=O)O)cc1 (centres unmarked)", "system": "human", "conditions": "600 mg single dose", "quantity": "plasma concentration", "value": "~100 µM"}
{"SMILES": "CN(C)CC/C=C1/c2ccccc2Sc2ccc(Cl)cc21", "tested on": "MCF7", "assay": "microarray, measured: SLC38A2 mRNA", "conditions": "concentration not given", "how to read": "relative to: DMSO", "quantity": "log2 fold change", "value": 1.22}
{"SMILES": "N#CC[C@H](C1CCCC1)n1cc(-c2ncnc3[nH]ccc23)cn1", "tested on": "JAK", "assay": "STAT3 phosphorylation", "system": "human adults", "conditions": "added: thrombopoietin", "quantity": "IC50", "value": "0.281 µM"}
{"SMILES": "C=C(C)[C@@H]1CC[C@]2(CO)CC[C@]3(C)[C@H](CC[C@@H]4[C@@]5(C)CC[C@H](O)[C@@](C)(COC(=O)/C=C\\c6ccc(O)cc6)[C@@H]5CC[C@]43C)[C@@H]12", "tested on": "Plasmodium falciparum", "system": "Dd2", "conditions": "concentration not given", "quantity": "antiplasmodial activity", "value": "active"}
{"SMILES": "C1Cc2[nH]nc(-c3nnn[nH]3)c2C1", "assay": "measured: HDL, LDL cholesterol, triglycerides", "system": "human phase II trial", "conditions": "dose not given", "quantity": "plasma lipid levels", "value": "no effect"}
{"SMILES": "CO[C@H]1/C=C/O[C@@]2(C)Oc3c(C)c(O)c4c(O)c(c(/C=N/N5CCN(C)CC5)c(O)c4c3C2=O)NC(=O)/C(C)=C\\C=C\\[C@H](C)[C@H](O)[C@@H](C)[C@@H](O)[C@@H](C)[C@H](OC(C)=O)[C@@H]1C", "tested on": "arylacetamide deacetylase (human)", "assay": "substrate", "quantity": "Km", "value": "195 µM"}
{"SMILES": "COCCOc1nc(-c2ccc(Cl)nc2)nc2c1CN(C(=O)c1ncn3ccccc13)CC2", "tested on": "adenosine transporter guinea pig", "assay": "radioligand binding", "quantity": "IC50", "value": "1.61 µM"}
{"SMILES": "C[C@H](Cn1cnc2c(N)ncnc21)OCP(=O)(O)O", "tested on": "Human immunodeficiency virus", "assay": "viral replication", "quantity": "EC50", "value": "0.05 µg/mL"}
{"SMILES": "CC(=O)Oc1ccccc1C(=O)Nc1ncc([N+](=O)[O-])s1", "system": "plasma", "conditions": "concentration not given", "quantity": "Cmax", "value": "31.2 µM"}
{"SMILES": "C[C@H](Cn1cnc2c(N)ncnc21)OCP(=O)(O)O", "system": "human, plasma", "conditions": "oral, 300 mg tenofovir disoproxil fumarate, single dose", "quantity": "Tmax", "value": "30 min"}
{"SMILES": "COc1cc2ccc(=O)oc2c(O)c1OC", "tested on": "HeLa", "assay": "cell growth", "quantity": "IC50", "value": "39.9 µg/mL"}
{"SMILES": "Cc1cc(C)c(CNC(=O)c2cc(Cl)c3c(c2C)O[C@@](C)([C@H]2CC[C@H](N(C)C)CC2)O3)c(=O)[nH]1", "system": "relapsed/refractory ATLL patients", "conditions": "200 mg/day, added: fluconazole", "quantity": "grade ≥3 TEAE incidence", "value": "63.6%"}
{"SMILES": "NC[C@@]1(CC(=O)O)[C@@H]2CC[C@H]3C[C@@H]2[C@@H]1C3", "system": "healthy humans, urine", "conditions": "40 mg, 48 h", "how to read": "relative to: dose", "quantity": "cumulative urinary excretion", "value": "79.2%"}
{"SMILES": "CCCCC(=O)N(Cc1ccc(-c2ccccc2-c2nnn[nH]2)cc1)[C@H](C(=O)O)C(C)C", "system": "plasma", "conditions": "concentration not given", "quantity": "Cmax", "value": "14.8 µM"}
{"SMILES": "C=C(C)[C@@H]1CC[C@]2(CO)CC[C@]3(C)[C@H](CC[C@@H]4[C@@]5(C)CC[C@H](OC(=O)/C=C/c6ccc(O)cc6)[C@@](C)(CO)[C@@H]5CC[C@]43C)[C@@H]12", "tested on": "Plasmodium falciparum", "system": "Dd2", "conditions": "concentration not given", "quantity": "antiplasmodial activity", "value": "active"}
{"SMILES": "CO[C@H]1[C@H](O[C@H]([C@H]2O[C@@H](n3ccc(=O)[nH]c3=O)[C@H](O)[C@@H]2O)[C@H](NCCCNC(=O)[C@@H](NC(=O)[C@@H](NC(=O)N[C@H](C(=O)O)C(C)C)[C@@H]2CCN=C(N)N2)[C@@H](OC(=O)CCCCCCCCCCCCN(O)C(=N)N)C(C)C)C(=O)O)O[C@H](CN)[C@H]1O", "tested on": "Staphylococcus aureus", "system": "mouse infection model", "quantity": "ED50", "value": "1.1 mg/kg"}
{"SMILES": "CC(=O)Nc1c(C(C)=O)c(=O)n(C)c2nc(-c3ccc(Cl)cc3Cl)c(-c3ccc(Cl)cc3)cc12", "tested on": "EGFR", "conditions": "off-target panel", "quantity": "IC50", "value": "3.26 µM"}
{"SMILES": "C=CC(=O)Nc1cc(Nc2nccc(-c3cn(C)c4ccccc34)n2)c(OCC(F)(F)F)nc1N(C)CCN(C)C", "conditions": "pH 5", "quantity": "solubility", "value": "3360 µg/mL"}
{"note": "Some of these lines once more (single results of other studies):"}
{"SMILES": "C[C@H](Cn1cnc2c(N)ncnc21)OCP(=O)(O)O", "tested on": "Human immunodeficiency virus", "assay": "viral replication", "quantity": "EC50", "value": "0.05 µg/mL"}
{"SMILES": "CC(=O)Oc1ccccc1C(=O)Nc1ncc([N+](=O)[O-])s1", "system": "plasma", "conditions": "concentration not given", "quantity": "Cmax", "value": "31.2 µM"}
{"SMILES": "C[C@H](Cn1cnc2c(N)ncnc21)OCP(=O)(O)O", "system": "human, plasma", "conditions": "oral, 300 mg tenofovir disoproxil fumarate, single dose", "quantity": "Tmax", "value": "30 min"}
{"SMILES": "COc1cc2ccc(=O)oc2c(O)c1OC", "tested on": "HeLa", "assay": "cell growth", "quantity": "IC50", "value": "39.9 µg/mL"}
{"SMILES": "Cc1cc(C)c(CNC(=O)c2cc(Cl)c3c(c2C)O[C@@](C)([C@H]2CC[C@H](N(C)C)CC2)O3)c(=O)[nH]1", "system": "relapsed/refractory ATLL patients", "conditions": "200 mg/day, added: fluconazole", "quantity": "grade ≥3 TEAE incidence", "value": "63.6%"}
{"SMILES": "NC[C@@]1(CC(=O)O)[C@@H]2CC[C@H]3C[C@@H]2[C@@H]1C3", "system": "healthy humans, urine", "conditions": "40 mg, 48 h", "how to read": "relative to: dose", "quantity": "cumulative urinary excretion", "value": "79.2%"}
